Assay results collected from several papers.
Numbered parts are unrelated; each lists some results of a single study. Substitutions count along the parent as printed.

Sample 1
Target: Hepatocyte nuclear factor 3-alpha (Foxa1, Mus musculus, UniProt P35582, residues 1-468, full length assumed)
UniProt P35582, sequence (whole entry, looked up): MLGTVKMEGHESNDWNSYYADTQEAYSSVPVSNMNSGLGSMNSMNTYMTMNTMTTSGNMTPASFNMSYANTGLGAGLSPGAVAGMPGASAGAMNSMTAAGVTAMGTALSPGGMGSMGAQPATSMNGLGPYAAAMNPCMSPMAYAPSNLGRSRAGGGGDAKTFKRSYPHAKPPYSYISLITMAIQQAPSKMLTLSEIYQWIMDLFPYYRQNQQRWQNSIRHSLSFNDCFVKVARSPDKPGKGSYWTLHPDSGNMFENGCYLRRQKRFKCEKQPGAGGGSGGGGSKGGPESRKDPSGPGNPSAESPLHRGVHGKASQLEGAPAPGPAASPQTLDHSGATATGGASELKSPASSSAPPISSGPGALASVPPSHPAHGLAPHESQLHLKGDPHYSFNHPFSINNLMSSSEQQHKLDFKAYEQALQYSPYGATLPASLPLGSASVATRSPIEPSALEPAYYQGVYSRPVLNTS
Technique: EMSA with sequencing
Form: double-stranded DNA, one strand shown
Sample: in vitro
Tested at: 10 and 20 nM
Setting: whole designed probe, mean of two concentrations, ends assumed
Baseline: negative control set to 0
Direction: higher = stronger binding
Under “normalised bound fraction”, `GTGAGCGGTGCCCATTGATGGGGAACCCCTCATCCTGGGTGTCGGGGTGGGAGGTGTTCTCATCATGAATGGGAGGCGTACCCAGATCCAGCTCTGCCTTTTTTTAACCAAACCAGAGTGTAAACAAATGGCTGTTAATCGACATAGCAAGTGACTCACCAGATATGATACATGCCAGGAGAGAAAAAGAAAGTGCTGATGGAAAAATAATCTCATTAGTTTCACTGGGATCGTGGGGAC` is recorded as 0.381 ratio.
Under “normalised bound fraction”, `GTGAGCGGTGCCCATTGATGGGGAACATATCAGGTTAAAAGAAACATTTCCTGGCAGATGCACAGCTCTGGAAAATTTTGTTTTCCAAACGTCTGGAAAACAAAAGGAAAGCTTCCTTTGTTTACATAGCCAAGAAGGTTGAGTGATGAGAATCAGAAAAGATTTTGAAGCAATACAAGATCTTCTCCTAGGGCCATTAGAGATCAGCTAATCTGTTCATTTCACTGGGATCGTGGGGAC` is recorded as 0.489 ratio.
`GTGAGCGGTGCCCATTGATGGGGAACGTGATCCTCCTGTGTCAGCCTTCCAAGGTGCTGGGATTACAGGCATGCACCCCTGGCCTCTGAAGCATTCCTTGAGTCAGATATGCTTGGTGTTGTTTACTCAACCTGAGTCACCTTTTGCTTCCCTGTTCACCATTACCTACTGCCTTACCCTGAAAGGGGAGGTACTTACTATATATACTCAGATCATAAATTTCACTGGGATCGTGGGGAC` — result for “normalised bound fraction”: 0.388 ratio.
Under “normalised bound fraction”, `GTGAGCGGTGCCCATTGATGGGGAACTTATTGCTACAGATATTTTACAATTAGTATTTCTATGTAAGCACATAGGCTATTATCAAGGACAATTTATTTAGCACTTATTTTGAAATTATATGTAATCTTGCAAACAAATAAGAACCCAAGAGTATAAACTCTATGACAAAAGTCAGTATGCAAGCATTAAGAACTCTTTCAGAAATGTGTATTTAAAATGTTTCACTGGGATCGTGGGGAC` is recorded as 0.178 ratio.
Under “normalised bound fraction”, `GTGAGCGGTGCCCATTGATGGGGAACAACATATAACTCTTTGTTTCAGGGATTATTTGATCAGCCTGTTGGCCAGTGGTATTATGGCCACTGAATTTTTTAAAAATGCAAAATGTACATGTTTACTTAGTTGTTCTTACACTTTGCTCCATGCCTTCCAACAATTTCTTCTTTAGTTGTTTCTTTTCTTATTTTGTGGAAACTTGAAATTTAATGAGGATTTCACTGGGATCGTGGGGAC` is recorded as 0.46 ratio.
`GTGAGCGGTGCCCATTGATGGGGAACACTCTGTTCATATGGCACGTTTCCTGCATATCATTCAGCCATTCTTCTCTGACACGTTCTGAGACGGAGACTTACAGGAAATACAGGCCCTGTGTAAACACTTGAAACACAGACAAGCAAATACCCACGAGTCTTTATCGCTCTTGATTCTTGGCACAGTTCCTTGCATGTGGTAGAGGCCTAACAGTTTTTCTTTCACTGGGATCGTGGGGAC` — result for “normalised bound fraction”: 0.405 ratio.
`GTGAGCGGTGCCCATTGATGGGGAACCACTGTAAAAACTTAGTCAATTTTTTTTTCTAAGAAAGAAAGTAAAGATAATAAAGACCTGTTACCCAATTCTGAGCAGAAGCTGAGTCACTGTGTAATCTCACTTCAACTACCGGCCTGCTTTCTCAAGGGTGAATCAATTGCTTTGAACAATGAATGTACTGAGTTCTTTCCAATTTTATCCTGCAGAATATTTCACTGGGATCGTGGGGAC` — result for “normalised bound fraction”: -0.0348 ratio.
`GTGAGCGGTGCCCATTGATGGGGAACGTCCATCACCATTATTTATTTTTAAAGCTGCTGAAAAGTGTAAGCCACCGCTTGATTTTGCCTTTCAAAAAAGGGGAAAGAACCCAAATTCAATGTAATTTTGGAAAGACCAGCATTGTTTCCACTTGGGCGAAGGCAGACACCCCAATCTGGGCAAAATTGATTCGGGTGGTTGTTGGAAAAAGCAGCTTTCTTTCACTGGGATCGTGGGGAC`: “normalised bound fraction” 0.14 ratio.

Sample 2
Target: RNA binding protein fox-1 homolog 2, RRM domain, GST-SBP tag (RBFOX2, Homo sapiens, UniProt O43251-10, residues 100-194)
Technique: RNA Bind-n-Seq
Form: RNA
Sample: in vitro
Tested at: 365 nM
Setting: natural RNA segment, single round, ends assumed
Baseline: no-protein control
Direction: higher = stronger binding
Residues (chain): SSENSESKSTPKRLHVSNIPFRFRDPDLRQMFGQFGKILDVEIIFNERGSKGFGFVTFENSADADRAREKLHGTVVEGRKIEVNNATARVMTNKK
For `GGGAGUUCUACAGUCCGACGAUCUCCUGCAAGGGCUAGCUGAGACUCAGUCCUGAUGAUAGGAGGUUACAGACUGCCUGCUCUAGGAUCUCUUGCUGUCUUCUCCUGGUCUCUGGCUUCUGCCUCACCUGCAAUGGAAUUCUCGGGUGCCAA`, “RBNS enrichment (R)” read 0.518.
`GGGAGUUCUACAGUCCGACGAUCAGGACCUCAGGAACAAUGUUGAUAGACCAUUUACAGGACUGUCAAGAAGCAGACUCAAUUCGAGAAUUAAAUGUGUCUGUCAUUGUGUUGAAUUUUGAUUUGUCCUUGGUUGGAAUUCUCGGGUGCCAA` — result for “RBNS enrichment (R)”: 0.364.
`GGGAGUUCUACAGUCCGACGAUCUAAUUGAACCACUAGGAAGUGUAUUUUCUUUUCUUUUUCUGCCAACUUUUUGGUGGCAUUUGUAAAAGCUGAUAUAAAAGGCUCUGAGAUGUUAUUUUCAGUUAUUCCAUUGGAAUUCUCGGGUGCCAA` — result for “RBNS enrichment (R)”: 0.306.
`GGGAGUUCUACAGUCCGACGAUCAGUUCUACAAACUGAUCUCCUUAACCACAACCAAGAUAGGCAUGUCACCAUGUCAAUUCCCCUUUUCUUAGCAACCAGUUCAAUGUUCUGCCCCUUCAAUCUUACCUUUUUGGAAUUCUCGGGUGCCAA`: “RBNS enrichment (R)” 0.882.
For `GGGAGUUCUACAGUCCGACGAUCAAAGCAAAUAUUAAGAUUUUUACUCAUUCAAGGCAAGUAAAUGAAUGGAAUUAUCUGAGCUCUAUGGCACUGGUUGUUUAGAGUGACUGAUGAAGUGCAACUUUCAAAAAUGGAAUUCUCGGGUGCCAA`, “RBNS enrichment (R)” read 0.412.
`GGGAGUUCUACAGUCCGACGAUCUGCUGACAGCCACUUCCGUGUCCCCUUUCUGCUCGAAGGAUGAGGAUACCUUGGGCAUCAGCUCCCCGGCUGCCCUUUUCACCCACCUGCUGGAGGGGGGUGGUGAGCCAUGGAAUUCUCGGGUGCCAA` — result for “RBNS enrichment (R)”: 0.274.
Under “RBNS enrichment (R)”, `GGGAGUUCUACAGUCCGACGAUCGCUCCCUCAAAUAUGUAUCUGAUGAGAUUCUUUAAUUCCCAACUCCAUGUGUGUGCGAGCACGCGUGUCUGUGUCUGUGUGUGCAUACUUCUGUGACUUUAGACAUGCUUUGGAAUUCUCGGGUGCCAA` is recorded as 0.721.
`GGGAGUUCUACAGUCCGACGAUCCCCAGCCUUGUUACCUCACUCCUGCUCCAGCCAUUGUGAUGGGCUCAGCCAGCUCCCUGUUCUGAUGUGCCCUGCAACAACAGCUCAGGGGUCUUGUGACUUGGAGAGGUUGGAAUUCUCGGGUGCCAA`: “RBNS enrichment (R)” 0.385.
`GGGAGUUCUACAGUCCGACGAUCUUGCAGGCCUGCACAGGCUGGGGAGUCCUCAGGACCUUAGGACCUUCAUCCAGGGGCUGGGCUUCGGGUCUUCAGGAGUGGGCCUUGGCUGGUGCUGGUGCCAUGGACUCUGGAAUUCUCGGGUGCCAA`: “RBNS enrichment (R)” 0.753.
`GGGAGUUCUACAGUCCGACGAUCAGUGUGCUGCUAUGCCUCUCUGCCUAGGAACCAAAUUUUAAAGAAGUCAGAGACAUUUUGAGGUGGUUACUACAGAUUACUGUUUCACAUUGUUUUCCUCACUGGACAGGUGGAAUUCUCGGGUGCCAA`: “RBNS enrichment (R)” 0.253.
For `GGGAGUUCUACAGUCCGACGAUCCUUUUAACUGGGGUAUUAACUUUUUUAGAAUGACACAGCUGAACAGUGUUAAUAAUAGUGUGUCAAGAUUGCAAAGUCGACAUACUCAUUUGGUUUAAGCAGGAAUCCUAUGGAAUUCUCGGGUGCCAA`, “RBNS enrichment (R)” read 0.42.
`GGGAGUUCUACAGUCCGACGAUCUUGAUACCCUUAAAAAUUAUUCAUAGAUCUGGCUGCUCUGUACUACUGGAUGGGUGGAAUAGGGAAGCAGAUCACUUUUGCAUACAAAAACUCUUUCAAACCCAAAAUAUUGGAAUUCUCGGGUGCCAA`: “RBNS enrichment (R)” 0.477.

Sample 3
Target: NFIL3, bZIP domain (human)
Technique: DHFR protein complementation
Sample: yeast
Setting: single substitutions, most at no-binding floor
Baseline: wild-type JUN-FOS pair
Direction: higher = stronger binding
Starting sequence: JUN, bZIP domain (human); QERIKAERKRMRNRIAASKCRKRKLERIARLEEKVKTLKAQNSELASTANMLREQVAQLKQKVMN; partner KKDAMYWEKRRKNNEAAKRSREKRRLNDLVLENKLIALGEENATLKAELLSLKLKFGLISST
`A40F` has a binding fitness of -1.55 natural log.
For `E32R`, the binding fitness was -1.42 natural log.
For `L45W`, the binding fitness was -1.54 natural log.
With `A46D` the binding fitness was -1.49 natural log.
`M51A` gave a binding fitness of -1.34 natural log.
With `Q55W` the binding fitness was -1.52 natural log.
`Q55C` has a binding fitness of -1.5 natural log.
The binding fitness of `L31V` is reported as -1.49 natural log.
For `L38F`, the binding fitness was -1.58 natural log.
With `A46S` the binding fitness was -1.33 natural log.
With `E33P` the binding fitness was -1.49 natural log.

Sample 4
Target: CCND2, cyclin fold, Cln2 fusion (human)
Technique: yeast growth competition, sequencing
Sample: yeast
Setting: weak parent motif
Baseline: not given
Direction: higher = stronger binding
Starting sequence: PKN2 docking peptide (human); VSAVQKLDFSDTM; partner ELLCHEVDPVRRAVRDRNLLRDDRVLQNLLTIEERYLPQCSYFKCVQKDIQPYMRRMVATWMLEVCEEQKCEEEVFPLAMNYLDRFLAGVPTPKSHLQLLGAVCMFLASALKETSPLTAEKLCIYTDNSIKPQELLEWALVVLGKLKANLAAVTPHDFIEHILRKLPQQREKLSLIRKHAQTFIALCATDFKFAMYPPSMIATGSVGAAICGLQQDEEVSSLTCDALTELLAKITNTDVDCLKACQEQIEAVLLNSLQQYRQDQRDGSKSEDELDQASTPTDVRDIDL
`V1A`: “normalised enrichment score” 0.377.
For `D8F`, “normalised enrichment score” read 0.256.
Under “normalised enrichment score”, `K6N` is recorded as 0.123.
For `V1L`, “normalised enrichment score” read 0.413.
`V4Y` — result for “normalised enrichment score”: 0.407.
`S10Q` — result for “normalised enrichment score”: 0.061.
Under “normalised enrichment score”, `F9R` is recorded as 0.371.
`D11R`: “normalised enrichment score” 0.449.
Under “normalised enrichment score”, `S10G` is recorded as 0.543.
`L7P` — result for “normalised enrichment score”: -0.0951.
Under “normalised enrichment score”, `A3F` is recorded as 0.173.
`S2D`: “normalised enrichment score” -0.0597.
`M13G` — result for “normalised enrichment score”: 0.698.
Under “normalised enrichment score”, `V4P` is recorded as -0.0599.
`S10N` — result for “normalised enrichment score”: 0.622.
Under “normalised enrichment score”, `L7I` is recorded as 0.226.
Under “normalised enrichment score”, `V4W` is recorded as 0.358.

Repeated from above (sample 4):
`V1A`: “normalised enrichment score” 0.377.
For `D8F`, “normalised enrichment score” read 0.256.
Under “normalised enrichment score”, `K6N` is recorded as 0.123.
For `V1L`, “normalised enrichment score” read 0.413.
`V4Y` — result for “normalised enrichment score”: 0.407.
